Measured values collected from several papers.
Each numbered part is a random draw from the data of one study; scales do not carry over between parts.

Block 1
Target: Histone acetyltransferase KAT6A, winged helix 2, GST fusion (KAT6A, Homo sapiens, UniProt Q92794, residues 85-181)
Technique: protein binding microarray
Form: double-stranded DNA, one strand shown
Sample: in vitro
Concentration: not given
Setting: 8-mer, flanks averaged, mean of 2 arrays, mostly near background
Baseline: not given
Reading: higher = stronger binding
Residues (chain): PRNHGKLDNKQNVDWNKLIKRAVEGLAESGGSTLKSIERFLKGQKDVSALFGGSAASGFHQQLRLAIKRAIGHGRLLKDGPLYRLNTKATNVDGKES
| Oligonucleotide | E-score |
| --- | --- |
| AATGACCG | 0.0636 |
| GACATCGA | 0.0302 |
| TGTTGTAA | -0.0282 |
| AAAGAAGG | -0.0362 |
| CAATATAG | -0.0784 |
| CATAATGC | -0.145 |
| ACCATCGC | 0.0214 |
| CAAGCCGA | 0.244 |
| CTGTGCCC | 0.0995 |
| GAGAGTCA | -0.157 |
| CCAAGGCA | 0.101 |
| TACATTAA | 0.111 |
| ACGTCAAA | -0.115 |
| ACAATAAT | 0.0163 |
| ACATCATG | -0.117 |
| AGCGTCAA | 0.0317 |

Block 2
Target: ATP-dependent RNA helicase DDX3X, helicase core (DDX3X, Homo sapiens, UniProt O00571, residues 132-607)
UniProt O00571, sequence (132-607, looked up): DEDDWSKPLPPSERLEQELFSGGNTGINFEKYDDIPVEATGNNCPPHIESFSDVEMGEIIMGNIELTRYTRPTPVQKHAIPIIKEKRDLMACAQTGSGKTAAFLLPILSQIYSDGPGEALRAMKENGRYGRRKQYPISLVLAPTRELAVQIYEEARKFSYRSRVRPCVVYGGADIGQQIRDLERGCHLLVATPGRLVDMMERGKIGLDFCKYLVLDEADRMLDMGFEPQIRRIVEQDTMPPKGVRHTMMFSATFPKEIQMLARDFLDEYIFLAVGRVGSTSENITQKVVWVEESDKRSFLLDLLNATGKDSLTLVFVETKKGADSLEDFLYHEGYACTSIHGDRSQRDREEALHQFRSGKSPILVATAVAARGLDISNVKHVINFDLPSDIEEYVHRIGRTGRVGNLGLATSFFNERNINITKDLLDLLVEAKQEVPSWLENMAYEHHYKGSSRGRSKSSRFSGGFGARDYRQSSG
Technique: RNA Bind-n-Seq
Form: RNA
Sample: in vitro
Concentration: 90 pmol
Setting: 4-mer, random 30-nt RNA, single round
Added: 3 µM DMDA-PatA, 2 mM ADP, 2 mM phosphate
Baseline: input library
Reading: higher = stronger binding
| Oligonucleotide | 4-mer enrichment [fold] |
| --- | --- |
| CAAA | 1.08 |
| UCGG | 0.895 |
| UUUA | 1.09 |
| ACGC | 1.01 |
| GUCC | 0.939 |
| GUGA | 1.12 |
| GGGU | 1.17 |
| UUCC | 0.935 |
| AAGG | 1.21 |
| GCGG | 0.994 |
| CACA | 1.05 |
| GACC | 0.891 |
| AUUU | 1.02 |
| GUUA | 1.07 |

Block 3
Target: Fragile X messenger ribonucleoprotein 1, C-terminal low-complexity region (Fmr1, Mus musculus, UniProt P35922)
Technique: RNA Bind-n-Seq
Form: RNA
Sample: in vitro
Concentration: 200 nM
Setting: whole 134-nt RNA, ends assumed
Added: 150 mM LiCl
Baseline: input library
Reading: higher = stronger binding
Each molecule: 7-deaza-guanosine replaces G
All sequences stand within: GGGAGUUCUACAGUCCGACGAUC … UGGAAUUCUCGGGUGUCAAGG
| Oligonucleotide | log2 enrichment |
| --- | --- |
| UAACUUUAGAGGAGGAUCUGAUGGAUAUGGCAGUGGACGUGGAUUUGGGGAUGGCUAUAAUGGGUAUGGAGGAGGACCUGGAUGUGGCAA | 0.0123 |
| UUUCUCCAUUGCAGGAAGUUGGCAGUAUCAUCGGAAAGGUAAGACAAUUUCACUUCAACUUCAAUUACCAUUUAGUAAUUCUGGAUUGAA | -1.64 |
| AGUCCUGUGCUACACAUCGUAUGUACCGAAUCGGGGUUUUUGGGGAGGGGUUUGGGGAAAGUAUUAUGUUACGCCGUUCGGAUCUGCACU | -0.772 |
| GUCCUGUGCUACACAUCGUAUGUACCGAAUCGGGAAAAAAAGGGAAAGGGAAAAAGGGAAAGUAUUAUGUUACGCCGUUCGGAUCUGCAC | 0.279 |
| CCUGUGCUACACAUCGUAUGUACCGAAUCGGGAAAAAGGGUUUUUUUGGGAAAAAAAGGGAAAGUAUUAUGUUACGCCGUUCGGAUCUGC | -2.14 |
| CUCAAGUCCUGUGCUACACAUCGUAUGUACCGAAUCGGGGCCGGCCGGGCCGGAAAGUAUUAUGUUACGCCGUUCGGAUCUGCACUUCCA | 0.667 |
| AAGUCCUGUGCUACACAUCGUAUGUACCGAAUCGGGGAAAGGGGAGGGGUUUGGGGAAAGUAUUAUGUUACGCCGUUCGGAUCUGCACUU | -0.471 |
| CAAGUCCUGUGCUACACAUCGUAUGUACCGAAUCGGUUUGGUUUUUUUGGUUUGGAAAGUAUUAUGUUACGCCGUUCGGAUCUGCACUUC | -1.98 |

Block 4
Target: RNA binding protein fox-1 homolog 2, RRM domain, GST-SBP tag (RBFOX2, Homo sapiens, UniProt O43251-10, residues 100-194)
Technique: RNA Bind-n-Seq
Form: RNA
Sample: in vitro
Concentration: 365 nM
Setting: natural RNA segment, single round, ends assumed
Baseline: no-protein control
Reading: higher = stronger binding
All sequences stand within: GGGAGUUCUACAGUCCGACGAUC … UGGAAUUCUCGGGUGCCAA
Construct (chain): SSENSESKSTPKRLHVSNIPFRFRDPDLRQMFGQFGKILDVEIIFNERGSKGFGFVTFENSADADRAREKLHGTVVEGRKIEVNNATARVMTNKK
| Oligonucleotide | RBNS enrichment (R) |
| --- | --- |
| AUUGAAGCAGUAGAAAGCGAAAAGGCUGGGCACCAGGCUUCAAUCUCUGAGAAUCUAAACUCUUACCAAAUCUGUGUAUUUUUCUUAAAGGAUGGAAUUCUUUAUGAAGU | 0.518 |
| AAGAACUUUCUGGCAGGUAGAUGGCCACCCAGGGAAUGUGGCAGGACCCUAAGAAGAGCAGGCAGCUGUGCUUGUUGAGAUAUGAGGACAGAAAAGGGACACCCUUUUAU | 0.889 |
| GUAGUUCUUUUCUGGCCCUUUCCCCUGCCUGGUCUAGCAACUCUUGGAACAGCCAUGCCUUCCAAAAGCUAUCAACCUGGGCCCUGAGCCCUGUAAGCAGAUGCCCCAGA | 0.273 |
| AAUGGAAUAGAGGUCUUGAUCUUUGGAAUGCAUGCCGGUAAUGUAUUUUACAGUACAUGUUAAUAAUUUAUGUUUAAUAUUUGUAUUUGUGUUCUCUUUUGUUAUUUUAC | 7.7 |
| CUUGCCCAAUGUAGACUUUCCUUUAUUAGAUUGAAGUACACAACCUAAUAUGAUAUAUUAUUUUGUAGUAUCUCAGACUUUGUAAAUAAAUGCCAUUAUUUUUAUAUGGA | 0.501 |
| CCAGCUCCCCUCAACGCUAUAUUUUGACACUAAAAAAGAAGGUUUCUAAAUUGUAGGAGCAGGAUGGAAAUACUUUGCUGCCCUUGCCAUCUUUUAGGAUGGGCCCCCAG | 0.866 |
| GUGGGCAAUGUUGGCGCUCACCUGGUCAGUGCACCAGUACCAGGUGGCCAUGAUGGUCAGACCAAAGGUCAUCCCAGUCCACGGGAGGUCUCCUGUGGAAGGGUCCCGGA | 0.537 |
| GUAAUAGCAAGAGUGAAGGUACUUUGGAACCACUAACACCUCUGCACAGGGCAGUUAGCCAGCUCAAGUUCUUUUUCAGAGAAAGGGACUUGGCCAGUGGUUUAAGUACC | 0.353 |
| UCUAUUAACAGCCGUCUAGAAGCGAUGCUUUAGUGGCCUAACCCAGGGUCAAAUACAGCUCUUUCUAGCAAAAUCAGGCAGCUCUGCCCCAUCGGUAGGGGCACCGAUUA | 0.259 |
| UCUGUUUCAAAUUGGGCUGACCGUAAAAGCAAUUUUGAUGUCUUUCAAACUACCAUAAAGGGAUUUUAACUGUAUUUUUAUUCUUAGAAACAAUACACCUUUAAACAGAU | 0.545 |
| ACUUGUUUUCCCGAUGUGUCCAGCCAGCUCCGCAGCAGCUUUUCAAAAUGCACUAUGCCUGAUUGCUGAUCGUGUUUUAACUUUUUCUUUUCCUGUUUUUAUUUUGGUAU | 1.84 |
| UUGCCCCAACUACUUACUAUUAUUUCGCUUUCGUUUUCCUGUAUUUUUUUCUUGCAUUGACAUUAUUGACGUUGAGGACCUCAUCAGAUCAAUUUAAAAGUGAGUGUGGA | 0.896 |

Block 5
Target: Interferon regulatory factor 5, full length, phosphomimetic (IRF5, Homo sapiens, UniProt Q13568-2, residues 1-514, S451D/S453D/S456D/S462D)
Technique: protein-binding microarray
Form: double-stranded DNA, one strand shown
Sample: in vitro
Concentration: 940 nM top
Setting: 60-bp whole probe
Added: salmon DNA 0.4 mg/ml
Baseline: random background probes
Reading: higher = stronger binding
All sequences stand within: GCCTAGCAC … GTCTTGATTCGCTTGACGCTGCTG
| Oligonucleotide | fitted relative affinity |
| --- | --- |
| TGCTTTTTAGAAATTTTTTTTGTGCTA | 0.562 z-score |
| TCAAAATTCTAATTAGAACTGTGCTAG | -0.456 z-score |
| CAAGTTACGGAATTTCCCTCTGTGCTA | 0.0692 z-score |
| GACGAACTGGGGTATCGAGTCGTGCTA | 1.69 z-score |
| GACGGTGCCGGTTTCGGGACGTGCTAG | 3.38 z-score |
| GACGGACTGGGCACTGGGGACGTGCTA | -0.753 z-score |
| TTAGGACTCGGTCTCGGTTAGTGCTAG | 1.65 z-score |
| GTCGGTATCGACACTGGGGACGTGCTA | 4.67 z-score |
| CTATATTTGCTTCAGGTTTAGTGCTAG | 0.176 z-score |
| GACGGACTGCTACTGCTGGCGTGCTAG | -0.889 z-score |
| TTAAGTTTCGGTTCCGGTTAGTGCTAG | 14.7 z-score |
| TTAGGACTGGTTTTCGGTTAGTGCTAG | 1.82 z-score |
| CAACTTTTTTTAATTGAGAAGTGCTAG | 0.162 z-score |
| GACGTTTTCGGGACTGGGGACGTGCTA | 0.824 z-score |
| CTAGTTTTTACTTTCTGAATGTGCTAG | 1.5 z-score |
| TCAACTTTCTCTGCTCTTTTCGTGCTA | 2.26 z-score |
| CACGAACTGAGTATCGAGACGTGCTAG | 1.24 z-score |
| GACGGTTTCGGGCATCGGGACGTGCTA | 7.38 z-score |
| TTAGGACTGGACCCTGGGTTAGTGCTA | -0.629 z-score |
| TCATCTCTGTTTTTGCTACTGTGCTAG | 2.1 z-score |
| TTAGAACCGAGTTTCGATTAGTGCTAG | 7.49 z-score |
| GACGGTTTCGGGTTTCGGGTCGTGCTA | 10.8 z-score |
| TATGGTATTTTTTTCTAATTGTGCTAG | 0.807 z-score |
| GACGGTTCCCCTTTCCTGACGTGCTAG | 0.931 z-score |
| TTAGATCTCAGACTGGATTAGTGCTAG | -0.122 z-score |

For quick reference, copied from above (block 1):
| Oligonucleotide | E-score |
| --- | --- |
| CCAAGGCA | 0.101 |
| AGCGTCAA | 0.0317 |
| ACCATCGC | 0.0214 |
| TGTTGTAA | -0.0282 |
| ACATCATG | -0.117 |
| CTGTGCCC | 0.0995 |
